Experimental data of several laboratories.
Protocols differ between the studies behind these lines.
Target: Cytochrome P450 2C9 (CYP2C9, Homo sapiens, UniProt P11712)
UniProt P11712, sequence (whole entry, looked up): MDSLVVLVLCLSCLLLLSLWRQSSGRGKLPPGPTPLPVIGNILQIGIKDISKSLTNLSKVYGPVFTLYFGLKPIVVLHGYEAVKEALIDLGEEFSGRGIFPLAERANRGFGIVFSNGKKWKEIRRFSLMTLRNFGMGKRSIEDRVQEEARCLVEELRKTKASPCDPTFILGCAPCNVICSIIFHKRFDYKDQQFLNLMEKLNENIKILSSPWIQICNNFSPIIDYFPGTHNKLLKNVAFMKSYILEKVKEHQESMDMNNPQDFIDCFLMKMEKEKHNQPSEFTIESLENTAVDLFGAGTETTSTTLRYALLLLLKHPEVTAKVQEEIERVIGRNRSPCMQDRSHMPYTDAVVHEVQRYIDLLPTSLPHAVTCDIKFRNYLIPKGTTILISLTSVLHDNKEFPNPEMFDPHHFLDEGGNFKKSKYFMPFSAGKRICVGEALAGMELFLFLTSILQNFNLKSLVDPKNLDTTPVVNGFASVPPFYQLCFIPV

`CC(C)c1ccc(Cn2ccc([C@H](C)[C@](O)(Cn3cnnn3)c3ccc(F)cc3F)n2)cc1` has an IC50 of 4.22 µM (enzyme activity, inhibitor; human, liver microsomes).
For `C[C@](C(=O)NC1CCOCC1)(c1cncnc1)N(C(=O)[C@H](F)Cl)c1ccc(OC(F)(F)Cl)cc1`, the IC50 was > 50 µM (enzyme activity, inhibitor; 10 (unit not given)).
`O=c1nc(NO)ccn1[C@@H]1O[C@H](CO)[C@@H](O)[C@H]1O` has an IC50 of > 100 µM (20 min, pH 7.4).
With `O=C1c2oc3cc(O)c(O)cc3c2C(=O)c2oc3cc(O)c(O)cc3c21` the IC50 was 27.5 µM (enzyme activity, inhibitor; human, liver microsomes; 1 h, pH 7.4).
With `Cc1cc(/C=C/C#N)cc(C)c1Oc1nc(NC2CCN(Cc3ccc(S(C)(=O)=O)cc3)CC2)nc2ncccc12` the IC50 was 6.76 µM (enzyme activity, inhibitor; 10 min).
`C[C@@H](c1ccn(Cc2ccc(Cl)c(Cl)c2)n1)[C@](O)(Cn1cnnn1)c1ccc(F)cc1F` has an IC50 of 4.3 µM (enzyme activity, inhibitor; human, liver microsomes).
`O=C(O)C(O)Cc1ccc(O)c(O)c1` (centres unmarked) has an IC50 of 99 µM (inhibitor).
The IC50 of `Cc1c(NC(=O)c2ccc3c(c2)CC[C@@H]2C[C@@](O)(C(F)(F)F)CC[C@@]32Cc2ccccc2)ccc[n+]1[O-]` is reported as 21 µM (enzyme activity, inhibitor; human, liver microsomes).
`O=C(NC1CCC(F)(F)CC1)C(c1cncnc1)N(C(=O)C(F)Cl)c1ccc(-c2cncs2)cc1` (centres unmarked) gave an IC50 of 15.6 µM (enzyme activity, inhibitor; 10 (unit not given)).
For `NC(=O)c1c(F)ccc(OCc2nc3cc(Cl)cnc3s2)c1F`, the IC50 was > 33.7 µM (enzyme activity, inhibitor, fluorescence).
For `C[C@@H](c1ccn(Cc2ccc(I)cc2)n1)[C@](O)(Cn1cnnn1)c1ccc(F)cc1F`, the IC50 was 2.37 µM (enzyme activity, inhibitor; human, liver microsomes).
`CCC(=O)N(C)c1ccc(Cl)c(Cl)c1` has an IC50 of > 25 µM (enzyme activity, inhibitor; human, liver microsomes; 5 min).
`COc1ccc2c(c1OCc1ccccc1)C[C@@H](C(=O)O)N(c1nc3ccc(C#N)cc3o1)C2` gave an IC50 of 31 µM (enzyme activity, inhibitor; human, liver microsomes; 15 min, pH 7.4).
`C=CC(=O)Nc1cc(Nc2nccc(-c3cn(C)c4ccccc34)n2)c(OCC(F)(F)F)nc1N(C)CCN(C)C` gave an IC50 of > 100 µM (enzyme activity, inhibitor; human, liver microsomes).
